Published values collected from several papers.
Numbered parts are unrelated; each lists some results of a single study. Values joined by “and” are separate records of one study, mostly repeats; a detail may differ.
Sequence of UniProt Q9H2K8 (whole entry, looked up): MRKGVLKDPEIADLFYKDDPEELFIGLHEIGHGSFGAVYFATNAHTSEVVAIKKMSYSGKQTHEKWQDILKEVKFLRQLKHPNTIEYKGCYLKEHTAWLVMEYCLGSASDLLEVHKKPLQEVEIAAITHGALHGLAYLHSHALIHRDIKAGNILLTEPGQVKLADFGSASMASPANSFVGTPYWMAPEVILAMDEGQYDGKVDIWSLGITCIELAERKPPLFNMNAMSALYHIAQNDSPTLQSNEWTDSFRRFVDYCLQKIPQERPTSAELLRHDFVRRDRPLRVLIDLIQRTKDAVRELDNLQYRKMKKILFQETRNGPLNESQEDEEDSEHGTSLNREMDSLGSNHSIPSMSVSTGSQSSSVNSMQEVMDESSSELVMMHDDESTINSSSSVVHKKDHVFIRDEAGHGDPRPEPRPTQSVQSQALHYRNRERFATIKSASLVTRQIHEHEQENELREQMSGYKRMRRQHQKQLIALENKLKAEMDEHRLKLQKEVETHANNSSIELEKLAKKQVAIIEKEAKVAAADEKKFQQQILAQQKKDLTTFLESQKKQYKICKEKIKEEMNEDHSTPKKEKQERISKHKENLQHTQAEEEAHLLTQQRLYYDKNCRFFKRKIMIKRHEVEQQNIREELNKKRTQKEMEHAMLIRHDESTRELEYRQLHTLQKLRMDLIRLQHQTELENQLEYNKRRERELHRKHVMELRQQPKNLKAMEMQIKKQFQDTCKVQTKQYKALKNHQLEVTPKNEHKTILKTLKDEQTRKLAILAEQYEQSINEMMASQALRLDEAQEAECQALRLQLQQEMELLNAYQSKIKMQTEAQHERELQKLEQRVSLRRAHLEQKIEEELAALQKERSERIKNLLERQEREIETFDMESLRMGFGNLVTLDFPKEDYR
Sequence of UniProt P49841 (whole entry, looked up): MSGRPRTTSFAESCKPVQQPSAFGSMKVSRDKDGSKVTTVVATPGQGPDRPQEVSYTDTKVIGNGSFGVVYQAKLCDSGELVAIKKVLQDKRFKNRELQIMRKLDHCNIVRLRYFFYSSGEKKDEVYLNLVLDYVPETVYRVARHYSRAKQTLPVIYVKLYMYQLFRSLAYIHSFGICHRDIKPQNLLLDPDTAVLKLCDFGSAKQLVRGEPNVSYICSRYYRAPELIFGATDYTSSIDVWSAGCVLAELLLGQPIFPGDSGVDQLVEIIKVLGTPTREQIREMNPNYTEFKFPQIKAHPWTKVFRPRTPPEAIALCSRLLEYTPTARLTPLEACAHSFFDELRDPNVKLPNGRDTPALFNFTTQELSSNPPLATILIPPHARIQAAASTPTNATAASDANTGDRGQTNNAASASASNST
Sequence of UniProt P36896 (whole entry, looked up): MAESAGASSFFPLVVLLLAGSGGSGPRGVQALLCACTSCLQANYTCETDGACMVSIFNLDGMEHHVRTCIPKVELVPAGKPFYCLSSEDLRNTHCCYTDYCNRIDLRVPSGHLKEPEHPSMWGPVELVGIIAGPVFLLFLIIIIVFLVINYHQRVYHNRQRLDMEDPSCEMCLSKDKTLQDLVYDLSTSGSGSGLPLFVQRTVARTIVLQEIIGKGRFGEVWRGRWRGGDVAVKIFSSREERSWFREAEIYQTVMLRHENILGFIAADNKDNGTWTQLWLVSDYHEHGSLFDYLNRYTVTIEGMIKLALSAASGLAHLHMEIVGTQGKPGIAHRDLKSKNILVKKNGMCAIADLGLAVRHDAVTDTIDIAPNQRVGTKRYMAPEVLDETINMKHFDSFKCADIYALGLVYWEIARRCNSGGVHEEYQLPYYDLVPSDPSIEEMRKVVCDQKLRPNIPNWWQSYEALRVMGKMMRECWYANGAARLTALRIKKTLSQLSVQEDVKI
Sequence of UniProt Q13233 (whole entry, looked up): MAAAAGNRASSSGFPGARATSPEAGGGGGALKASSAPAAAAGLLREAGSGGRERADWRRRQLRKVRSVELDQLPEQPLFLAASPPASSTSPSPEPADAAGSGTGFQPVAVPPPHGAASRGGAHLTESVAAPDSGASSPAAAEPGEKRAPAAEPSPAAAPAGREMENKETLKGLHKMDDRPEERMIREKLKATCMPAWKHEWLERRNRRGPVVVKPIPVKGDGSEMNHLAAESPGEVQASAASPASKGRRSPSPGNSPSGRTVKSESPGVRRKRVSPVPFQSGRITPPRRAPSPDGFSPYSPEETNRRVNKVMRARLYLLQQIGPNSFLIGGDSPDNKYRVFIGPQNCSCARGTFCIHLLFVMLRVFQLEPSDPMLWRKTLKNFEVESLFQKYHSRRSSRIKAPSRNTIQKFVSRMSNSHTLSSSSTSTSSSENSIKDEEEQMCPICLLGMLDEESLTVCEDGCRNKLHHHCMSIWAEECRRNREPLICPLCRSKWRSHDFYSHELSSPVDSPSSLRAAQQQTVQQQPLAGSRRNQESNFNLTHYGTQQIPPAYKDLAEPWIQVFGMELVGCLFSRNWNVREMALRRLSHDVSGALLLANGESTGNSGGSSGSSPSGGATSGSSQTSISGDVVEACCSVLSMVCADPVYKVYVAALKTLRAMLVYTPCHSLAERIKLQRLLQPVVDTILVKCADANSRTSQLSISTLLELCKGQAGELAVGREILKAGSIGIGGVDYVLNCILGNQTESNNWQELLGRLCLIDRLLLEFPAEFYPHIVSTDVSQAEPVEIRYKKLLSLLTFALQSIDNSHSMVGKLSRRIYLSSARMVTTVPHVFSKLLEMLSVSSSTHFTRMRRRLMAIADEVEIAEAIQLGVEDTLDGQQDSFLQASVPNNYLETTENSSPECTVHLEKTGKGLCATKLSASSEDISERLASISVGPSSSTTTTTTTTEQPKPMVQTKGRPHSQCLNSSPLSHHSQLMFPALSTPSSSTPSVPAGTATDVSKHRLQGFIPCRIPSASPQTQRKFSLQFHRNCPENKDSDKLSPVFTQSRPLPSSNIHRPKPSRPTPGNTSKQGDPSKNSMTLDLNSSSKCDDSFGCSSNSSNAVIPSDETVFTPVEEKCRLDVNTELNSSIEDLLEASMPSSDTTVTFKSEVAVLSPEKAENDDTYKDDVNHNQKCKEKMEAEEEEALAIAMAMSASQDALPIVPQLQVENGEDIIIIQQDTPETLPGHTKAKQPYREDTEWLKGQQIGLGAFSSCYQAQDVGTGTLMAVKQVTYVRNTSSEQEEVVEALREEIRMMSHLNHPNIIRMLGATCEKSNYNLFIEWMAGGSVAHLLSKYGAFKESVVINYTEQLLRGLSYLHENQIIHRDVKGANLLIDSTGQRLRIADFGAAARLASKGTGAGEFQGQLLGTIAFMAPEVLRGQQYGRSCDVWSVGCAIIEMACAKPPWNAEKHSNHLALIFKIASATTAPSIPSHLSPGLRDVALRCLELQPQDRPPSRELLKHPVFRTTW
Sequence of UniProt P31751 (whole entry, looked up): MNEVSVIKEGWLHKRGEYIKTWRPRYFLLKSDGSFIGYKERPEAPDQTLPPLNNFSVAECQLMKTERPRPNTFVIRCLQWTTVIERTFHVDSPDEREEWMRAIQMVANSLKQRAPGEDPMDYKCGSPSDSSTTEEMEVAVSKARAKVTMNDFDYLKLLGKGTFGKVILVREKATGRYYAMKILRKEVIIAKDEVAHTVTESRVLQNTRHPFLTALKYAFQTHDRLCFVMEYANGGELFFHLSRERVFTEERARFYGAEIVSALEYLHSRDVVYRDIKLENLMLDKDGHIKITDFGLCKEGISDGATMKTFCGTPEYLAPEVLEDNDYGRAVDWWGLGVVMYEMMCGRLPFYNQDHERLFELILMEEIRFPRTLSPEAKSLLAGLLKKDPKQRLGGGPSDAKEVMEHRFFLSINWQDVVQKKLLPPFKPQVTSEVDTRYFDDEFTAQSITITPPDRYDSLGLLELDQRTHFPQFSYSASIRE

Sample 1
Structure (SMILES): CCc1ccccc1C(=O)Nc1n[nH]c2c(C)c(F)c(C3C(C#N)=C(C)N(C)C(C)=C3C#N)cc12
Effect on: cell-free assay
Technique: competition with immobilised ligand
Tested at: 1 µM
target | remaining binding [%]
EGFR (Homo sapiens, UniProt P00533, del746-750) | 62
MAP3K1 (Homo sapiens, UniProt Q13233) | 100
GSK3B (Homo sapiens, UniProt P49841) | 100
MAPK11 (Homo sapiens, UniProt Q15759) | 91
MET (Homo sapiens, UniProt P08581, Y1235D) | 16
TAOK3 (Homo sapiens, UniProt Q9H2K8) | 38
AKT2 (Homo sapiens, UniProt P31751) | 95
CSNK1A1L (Homo sapiens, UniProt Q8N752) | 62
DMPK (Homo sapiens, UniProt Q09013) | 100
EPHA7 (Homo sapiens, UniProt Q15375) | 81
HASPIN (Homo sapiens, UniProt Q8TF76) | 100
EGFR (Homo sapiens, UniProt P00533, T790M) | 100
SRC (Homo sapiens, UniProt P12931) | 94
ACVR1B (Homo sapiens, UniProt P36896) | 100

Sample 2
Target: Ephrin type-B receptor 3 (EPHB3, Homo sapiens, UniProt P54753)
Sequence of UniProt P54753 (whole entry, looked up): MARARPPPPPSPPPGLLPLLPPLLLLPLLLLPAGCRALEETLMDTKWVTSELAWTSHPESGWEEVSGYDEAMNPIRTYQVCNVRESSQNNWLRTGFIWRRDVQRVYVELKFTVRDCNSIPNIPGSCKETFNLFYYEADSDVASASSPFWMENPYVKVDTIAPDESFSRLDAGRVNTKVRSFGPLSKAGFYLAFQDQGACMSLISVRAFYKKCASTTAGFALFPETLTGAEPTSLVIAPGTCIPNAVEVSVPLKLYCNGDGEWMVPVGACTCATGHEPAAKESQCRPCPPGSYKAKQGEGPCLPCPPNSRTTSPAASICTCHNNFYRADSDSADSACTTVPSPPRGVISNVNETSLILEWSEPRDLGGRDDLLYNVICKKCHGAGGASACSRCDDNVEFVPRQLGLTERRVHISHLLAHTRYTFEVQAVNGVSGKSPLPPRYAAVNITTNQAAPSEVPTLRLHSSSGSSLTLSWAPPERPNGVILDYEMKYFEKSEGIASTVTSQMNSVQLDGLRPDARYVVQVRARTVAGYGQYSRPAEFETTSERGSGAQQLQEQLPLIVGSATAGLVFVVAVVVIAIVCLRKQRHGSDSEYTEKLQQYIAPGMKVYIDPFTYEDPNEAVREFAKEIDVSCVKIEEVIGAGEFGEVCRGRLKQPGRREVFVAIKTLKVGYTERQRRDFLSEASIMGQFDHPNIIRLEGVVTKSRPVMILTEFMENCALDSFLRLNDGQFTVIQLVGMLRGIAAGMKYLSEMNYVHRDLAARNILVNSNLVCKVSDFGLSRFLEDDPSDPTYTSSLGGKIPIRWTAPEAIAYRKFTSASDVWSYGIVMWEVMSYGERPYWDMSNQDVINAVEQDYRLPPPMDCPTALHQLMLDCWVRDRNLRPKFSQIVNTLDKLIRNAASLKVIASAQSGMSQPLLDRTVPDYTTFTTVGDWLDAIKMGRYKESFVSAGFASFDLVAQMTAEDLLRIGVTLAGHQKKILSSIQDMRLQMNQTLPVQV
Effect on: enzyme activity
Action: inhibitor
Tested at: 0.5 µM
Baseline: control
SMILES | remaining activity
N#C/C(=C\c1ccc(O)c(O)c1)C(=O)NCc1ccccc1 | 101%
COc1cc2ncnc(Nc3ccc(O)c(Br)c3)c2cc1OC | 88.1%
COc1cc2c(cc1OC)-c1[nH]nc(Nc3cccc(F)c3)c1C2 | 97.2%
CCN(CC)C(=O)c1ccc(Nc2nc(OCC3CCCCC3)c3[nH]cnc3n2)cc1 | 99.5%
Cc1nc2cc3nc(-c4cccs4)cnc3cc2n1C | 101%
COc1cc2ncnc(Nc3cccc(Cl)c3)c2cc1OC | 99.1%
CCN(CC)CCNC(=O)c1c(C)[nH]c(/C=C2\C(=O)Nc3ccc(Cl)cc32)c1C | 100%

Sample 3
Cell line: HaCaT
Tested at: 100 µM
Time: 18 h
SMILES | viability [%]
O=C(O)CN(CCN(CC(=O)O)CC(=O)O)CC(=O)O | 108
C=CC(=O)Nc1cc(Nc2nccc(-c3cn(C)c4ccccc34)n2)c(OC)cc1N(C)CCN(C)C | 16.4
COC1C(OC(N)=O)C(O)C(Oc2ccc3c(O)c(NC(=O)c4ccc(O)c(CC=C(C)C)c4)c(=O)oc3c2C)OC1(C)C (centres unmarked) | 99.2
Cc1cc(CC(=O)O)n(C)c1C(=O)c1ccc(Cl)cc1 | 90.5
CC1(C)S[C@@H]2[C@H](NC(=O)[C@H](N)c3ccc(O)cc3)C(=O)N2[C@H]1C(=O)O | 110
OCc1ccccc1O[C@@H]1O[C@H](CO)[C@@H](O)[C@H](O)[C@H]1O | 108
CCOC(=O)[C@H](CCc1ccccc1)N[C@@H](C)C(=O)N1CCC[C@H]1C(=O)O | 108

Mixed results
SMILES | species | sample | route | dose | quantity | value
COc1ccc(-c2c(Nc3ccccn3)[nH]c3c(C4=CCCCC4)c(-c4ccccc4)nn3c2=O)cc1 | human | plasma | oral | 200 mg twice daily | Cmin | 8.9 µg/mL and 9.58 µg/mL

Excerpt of the above (sample 2):
SMILES | remaining activity
COc1cc2ncnc(Nc3cccc(Cl)c3)c2cc1OC | 99.1%
CCN(CC)CCNC(=O)c1c(C)[nH]c(/C=C2\C(=O)Nc3ccc(Cl)cc32)c1C | 100%
N#C/C(=C\c1ccc(O)c(O)c1)C(=O)NCc1ccccc1 | 101%
Cc1nc2cc3nc(-c4cccs4)cnc3cc2n1C | 101%
